Experimental data gathered from unrelated publications.
Each numbered part is a random draw from the data of one study; scales do not carry over between parts. Values joined by “and” are separate records of one study, mostly repeats; a detail may differ.

Set 1
Target: Interferon regulatory factor 5, full length, phosphomimetic (IRF5, Homo sapiens, UniProt Q13568-2, residues 1-514, K96S/S451D/S453D/S456D/S462D)
Technique: protein-binding microarray
Molecule type: double-stranded DNA, one strand shown
Sample: in vitro
Concentration: 250 nM
Setting: 60-bp whole probe
With: salmon DNA 0.4 mg/ml
Baseline: random background probes
Reading: higher = stronger binding
Measurement: log fluorescence
GCCTAGCACATAGGTTTCGGACTGGGTTAGTGCTAGGTCTTGATTCGCTTGACGCTGCTG: 4.96 z-score
GCCTAGCACTTAGGACTGGGTGTCGGTTAGTGCTAGGTCTTGATTCGCTTGACGCTGCTG: -0.138 z-score
GCCTAGCACTTAGAACTCAGTTTCGATTAGTGCTAGGTCTTGATTCGCTTGACGCTGCTG: 9.59 z-score
GCCTAGCACTTAGGACTGGGTATAGGTTAGTGCTAGGTCTTGATTCGCTTGACGCTGCTG: -0.465 z-score

Set 2
Target: RNA binding protein fox-1 homolog 2, RRM domain, GST-SBP tag (RBFOX2, Homo sapiens, UniProt O43251-10, residues 100-194)
Technique: RNA Bind-n-Seq
Molecule type: RNA
Sample: in vitro
Concentration: 365 nM
Setting: natural RNA segment, single round, ends assumed
Baseline: no-protein control
Reading: higher = stronger binding
Measurement: RBNS enrichment (R)
Target sequence (chain): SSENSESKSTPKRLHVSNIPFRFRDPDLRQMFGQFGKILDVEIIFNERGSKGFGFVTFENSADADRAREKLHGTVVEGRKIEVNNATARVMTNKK
GGGAGUUCUACAGUCCGACGAUCCAAAGGUAAACACAGAUUGUAUCUUUUUUAAUGGUACGGCAUAAAAAAAUAACCCUAAAGUGAAGUGGCUCUAUACUGUUUUAUAGAGUACUUUAACGUGUAUAGAUAUCUGGAAUUCUCGGGUGCCAA: 0.409
GGGAGUUCUACAGUCCGACGAUCUGUGACUGCCCACUGCCCAGCUGCCUCGGGUACAAGUCCUGGCCCUAUGUCCCAGCUGUCAGGGGCUCAGGGAAUCCUACCCAGCCACCUGUCCUGGGAUGGAGUGUCAGUGGAAUUCUCGGGUGCCAA: 0.2
GGGAGUUCUACAGUCCGACGAUCGUUUCCAGUGUGACUCGGCAUGUCAUGGCUACCCAACCUUUGCCGCUGCCUGUUCCCACGUGUCACCAGCACGCUGCACUCCAGAUGAAAUCCUCCUAGGACAGGAGUUUUGGAAUUCUCGGGUGCCAA: 0.585
GGGAGUUCUACAGUCCGACGAUCUAAAGCUUUUGUUAUAUAUUAAAUGUAAACUGAAAGGAAUGUAAACAUAUGUAUUGUUAAUUAUAAAUAUAGAUAAGUAAUGACAUAAUAGAUGAAAAAGUCUUAUUCAGUGGAAUUCUCGGGUGCCAA: 1.02

Set 3
Target: Histone acetyltransferase KAT6A, winged helix 1, GST fusion (KAT6A, Homo sapiens, UniProt Q92794, residues 1-85)
Technique: protein binding microarray
Molecule type: double-stranded DNA, one strand shown
Sample: in vitro
Concentration: not given
Setting: 8-mer, flanks averaged, mean of 2 arrays, mostly near background
Baseline: not given
Reading: higher = stronger binding
Measurement: E-score
Construct (chain): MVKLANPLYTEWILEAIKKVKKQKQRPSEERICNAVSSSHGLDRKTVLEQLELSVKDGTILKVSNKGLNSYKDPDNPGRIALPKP
GACCTAGA: 0.112
AGATTTAC: -0.0901
CACGTTGC: -0.102
AGCGTTGA: -0.0595

Single results of other studies
PhoQ, residues 284 288 289 292 302 303 AEGLLW — fold induction (PhoP, residues 12 14 15 18 19 LWHCS (Escherichia coli, UniProt P23836); Sort-seq, refers to: YFP reporter; E. coli; PhoQ-PhoP variant library, with: 10 µM Mg2+; baseline: high Mg2+ state, higher = stronger signaling): 7.76 and 8.21

Some of these lines once more (set 2):
GGGAGUUCUACAGUCCGACGAUCUGUGACUGCCCACUGCCCAGCUGCCUCGGGUACAAGUCCUGGCCCUAUGUCCCAGCUGUCAGGGGCUCAGGGAAUCCUACCCAGCCACCUGUCCUGGGAUGGAGUGUCAGUGGAAUUCUCGGGUGCCAA: 0.2
